Experimental data gathered from unrelated publications.
Parts stem from different laboratories: compare values within a part only.
Chain of UniProt P54756 (whole entry, looked up): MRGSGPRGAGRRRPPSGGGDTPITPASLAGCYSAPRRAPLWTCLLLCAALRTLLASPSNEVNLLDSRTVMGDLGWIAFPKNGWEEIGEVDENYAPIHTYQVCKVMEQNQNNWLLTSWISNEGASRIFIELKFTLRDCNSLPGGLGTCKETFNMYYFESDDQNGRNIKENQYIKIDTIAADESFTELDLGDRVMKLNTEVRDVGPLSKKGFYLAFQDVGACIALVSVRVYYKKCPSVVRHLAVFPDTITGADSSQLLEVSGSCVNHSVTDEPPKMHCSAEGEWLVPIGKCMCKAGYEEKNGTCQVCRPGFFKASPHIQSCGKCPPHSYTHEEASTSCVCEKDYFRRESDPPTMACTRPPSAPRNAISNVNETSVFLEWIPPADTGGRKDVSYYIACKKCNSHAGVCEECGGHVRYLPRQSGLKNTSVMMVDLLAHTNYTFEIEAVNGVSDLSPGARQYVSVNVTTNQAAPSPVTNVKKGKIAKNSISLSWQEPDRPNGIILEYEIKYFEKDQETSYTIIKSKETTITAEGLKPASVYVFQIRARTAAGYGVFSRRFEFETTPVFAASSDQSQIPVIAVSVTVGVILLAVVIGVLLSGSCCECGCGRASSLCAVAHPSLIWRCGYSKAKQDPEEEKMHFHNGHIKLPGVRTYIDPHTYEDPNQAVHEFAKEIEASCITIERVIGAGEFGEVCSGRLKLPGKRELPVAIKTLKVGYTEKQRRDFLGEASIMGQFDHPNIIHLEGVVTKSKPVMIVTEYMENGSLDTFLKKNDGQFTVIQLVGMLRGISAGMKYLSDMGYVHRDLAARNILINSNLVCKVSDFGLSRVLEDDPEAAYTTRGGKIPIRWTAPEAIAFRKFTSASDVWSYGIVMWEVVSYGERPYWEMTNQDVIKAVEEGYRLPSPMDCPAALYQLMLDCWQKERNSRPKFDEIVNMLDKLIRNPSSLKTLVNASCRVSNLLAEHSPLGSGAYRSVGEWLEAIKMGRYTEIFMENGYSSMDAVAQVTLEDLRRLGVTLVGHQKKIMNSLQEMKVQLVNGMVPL
Chain of UniProt O60331 (whole entry, looked up): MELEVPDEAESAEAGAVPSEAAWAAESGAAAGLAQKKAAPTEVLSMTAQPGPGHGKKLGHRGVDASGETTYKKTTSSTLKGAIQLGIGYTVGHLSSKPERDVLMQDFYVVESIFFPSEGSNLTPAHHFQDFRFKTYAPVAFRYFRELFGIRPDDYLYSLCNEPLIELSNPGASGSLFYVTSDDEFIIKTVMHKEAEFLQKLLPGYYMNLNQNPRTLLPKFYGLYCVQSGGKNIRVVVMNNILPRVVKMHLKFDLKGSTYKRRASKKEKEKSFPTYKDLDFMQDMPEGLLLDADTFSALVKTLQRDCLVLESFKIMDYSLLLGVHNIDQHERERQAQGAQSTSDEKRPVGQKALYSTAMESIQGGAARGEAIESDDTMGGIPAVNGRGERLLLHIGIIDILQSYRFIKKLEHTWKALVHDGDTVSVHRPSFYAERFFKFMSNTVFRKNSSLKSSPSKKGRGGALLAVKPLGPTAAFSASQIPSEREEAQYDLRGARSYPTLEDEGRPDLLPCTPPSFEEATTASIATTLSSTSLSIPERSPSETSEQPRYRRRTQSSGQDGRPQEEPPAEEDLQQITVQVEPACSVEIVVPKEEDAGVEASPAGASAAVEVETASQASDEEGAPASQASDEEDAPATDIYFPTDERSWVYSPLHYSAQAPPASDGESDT
Chain of UniProt Q96Q40 (whole entry, looked up): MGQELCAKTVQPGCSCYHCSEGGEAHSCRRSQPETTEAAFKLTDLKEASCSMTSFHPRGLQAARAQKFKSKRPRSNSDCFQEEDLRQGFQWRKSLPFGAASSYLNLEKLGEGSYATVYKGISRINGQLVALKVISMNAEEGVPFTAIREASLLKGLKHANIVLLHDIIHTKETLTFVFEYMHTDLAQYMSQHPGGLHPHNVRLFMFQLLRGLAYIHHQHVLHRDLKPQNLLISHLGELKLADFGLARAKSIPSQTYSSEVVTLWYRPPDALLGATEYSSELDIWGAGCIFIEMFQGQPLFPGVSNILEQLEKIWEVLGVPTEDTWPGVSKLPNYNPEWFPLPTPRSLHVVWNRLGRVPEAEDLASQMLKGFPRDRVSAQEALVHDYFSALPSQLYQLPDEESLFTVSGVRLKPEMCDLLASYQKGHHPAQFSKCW
Chain of UniProt P42336 (whole entry, unmodified, looked up): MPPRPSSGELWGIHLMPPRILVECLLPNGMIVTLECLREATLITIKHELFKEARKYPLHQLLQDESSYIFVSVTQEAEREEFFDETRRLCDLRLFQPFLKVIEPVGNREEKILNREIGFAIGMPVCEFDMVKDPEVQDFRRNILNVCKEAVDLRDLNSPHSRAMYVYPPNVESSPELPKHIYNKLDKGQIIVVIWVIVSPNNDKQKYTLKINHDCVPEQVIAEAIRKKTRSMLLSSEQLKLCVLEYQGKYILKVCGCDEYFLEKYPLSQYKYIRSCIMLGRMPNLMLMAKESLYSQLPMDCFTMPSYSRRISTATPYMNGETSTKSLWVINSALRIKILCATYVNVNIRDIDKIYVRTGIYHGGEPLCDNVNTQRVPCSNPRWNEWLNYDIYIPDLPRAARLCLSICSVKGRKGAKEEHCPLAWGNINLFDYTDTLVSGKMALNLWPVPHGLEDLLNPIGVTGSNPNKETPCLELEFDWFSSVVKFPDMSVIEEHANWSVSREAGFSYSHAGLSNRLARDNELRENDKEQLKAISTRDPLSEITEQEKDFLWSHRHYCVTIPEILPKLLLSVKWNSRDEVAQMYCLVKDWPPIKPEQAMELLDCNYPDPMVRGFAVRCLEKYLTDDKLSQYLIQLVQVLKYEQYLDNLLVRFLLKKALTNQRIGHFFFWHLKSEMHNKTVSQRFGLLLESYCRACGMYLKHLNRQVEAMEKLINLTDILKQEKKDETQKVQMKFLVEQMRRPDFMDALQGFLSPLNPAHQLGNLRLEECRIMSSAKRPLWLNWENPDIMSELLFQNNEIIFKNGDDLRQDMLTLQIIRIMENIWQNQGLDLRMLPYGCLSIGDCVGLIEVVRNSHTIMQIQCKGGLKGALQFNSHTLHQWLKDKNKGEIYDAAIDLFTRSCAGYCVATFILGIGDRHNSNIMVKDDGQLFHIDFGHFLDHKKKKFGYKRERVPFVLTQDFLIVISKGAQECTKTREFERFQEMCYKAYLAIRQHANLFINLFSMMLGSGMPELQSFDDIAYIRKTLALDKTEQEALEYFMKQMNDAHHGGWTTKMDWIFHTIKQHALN
Chain of UniProt Q9UQM7 (whole entry, looked up): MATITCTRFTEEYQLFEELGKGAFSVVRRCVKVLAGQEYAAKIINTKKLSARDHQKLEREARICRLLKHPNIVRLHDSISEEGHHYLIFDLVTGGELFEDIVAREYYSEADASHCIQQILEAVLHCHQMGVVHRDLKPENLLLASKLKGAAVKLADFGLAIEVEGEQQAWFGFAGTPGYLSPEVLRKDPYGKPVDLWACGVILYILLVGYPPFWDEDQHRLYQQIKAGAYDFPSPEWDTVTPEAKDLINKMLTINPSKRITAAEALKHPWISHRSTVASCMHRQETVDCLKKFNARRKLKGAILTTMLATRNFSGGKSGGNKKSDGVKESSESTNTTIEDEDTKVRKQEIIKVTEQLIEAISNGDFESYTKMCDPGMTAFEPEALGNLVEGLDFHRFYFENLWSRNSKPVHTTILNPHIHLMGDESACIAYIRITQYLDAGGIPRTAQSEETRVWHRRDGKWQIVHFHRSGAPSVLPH
Chain of UniProt Q59H18 (whole entry, looked up): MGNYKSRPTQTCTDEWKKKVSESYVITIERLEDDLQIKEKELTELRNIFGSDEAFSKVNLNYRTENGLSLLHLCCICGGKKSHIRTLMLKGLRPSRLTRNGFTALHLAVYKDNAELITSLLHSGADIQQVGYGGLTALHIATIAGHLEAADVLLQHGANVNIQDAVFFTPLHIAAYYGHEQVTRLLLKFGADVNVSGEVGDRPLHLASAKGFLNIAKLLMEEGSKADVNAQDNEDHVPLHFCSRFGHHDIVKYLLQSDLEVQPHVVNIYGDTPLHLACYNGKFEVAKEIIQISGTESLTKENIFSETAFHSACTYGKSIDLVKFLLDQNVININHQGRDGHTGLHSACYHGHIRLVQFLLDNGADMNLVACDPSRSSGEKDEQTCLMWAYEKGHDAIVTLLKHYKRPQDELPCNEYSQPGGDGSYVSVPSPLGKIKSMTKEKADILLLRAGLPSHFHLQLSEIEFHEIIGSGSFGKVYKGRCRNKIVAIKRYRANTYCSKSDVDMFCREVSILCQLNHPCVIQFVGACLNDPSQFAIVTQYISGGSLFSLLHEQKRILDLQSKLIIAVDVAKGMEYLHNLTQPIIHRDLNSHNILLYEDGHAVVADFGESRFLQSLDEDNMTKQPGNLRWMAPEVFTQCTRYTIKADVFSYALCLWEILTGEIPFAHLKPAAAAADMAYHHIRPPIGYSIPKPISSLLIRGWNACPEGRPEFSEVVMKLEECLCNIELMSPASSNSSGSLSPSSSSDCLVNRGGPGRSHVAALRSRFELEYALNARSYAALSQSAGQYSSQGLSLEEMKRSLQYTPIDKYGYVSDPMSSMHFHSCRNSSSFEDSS

Series 1
Structure (SMILES): CC(C)n1cnc(-c2ccc(F)cc2)c1-c1ncc(C(=O)Nc2ccc(N3CCN(C)CC3)cc2)[nH]1
Method: Phase 2a trial
Species: idiopathic pulmonary fibrosis patients
refers to	route	dose	notes	patients with adverse events
blood bilirubin increased		30 mg once daily	grade 5 maximum intensity	0%
neutrophil count increased		60 mg once daily	grade 5 maximum intensity	0%
blood alkaline phosphatase increased		30 mg once daily	grade 1 maximum intensity	0%
vision blurred		30 mg once daily	grade 1 maximum intensity	0%
oral herpes	oral	dose not given	grade 4 maximum intensity, all arms	0%

Series 2
Cell line: mouse MPNST tumor cells
Method: high-content immunofluorescence imaging
Refers to: nuclear SOX9
Tested at: 10 µM
Time: 12 h
Notes: mean of 2 replicates
Reference: DMSO control
Reading: higher = more nuclear SOX9
Structure (SMILES)	nuclear SOX9 intensity
O=C(NCC(O)CO)c1c(I)c(C(=O)NCC(O)CO)c(I)c(N(CCO)C(=O)CO)c1I (stereo not shown)	91.6 % of DMSO
NCCCC[C@H](N[C@@H](CCc1ccccc1)C(=O)O)C(=O)N1CCC[C@H]1C(=O)O	100 % of DMSO
Cc1c(NC(=O)OC[C@@H]2COCCN2)cn2ncnc(Nc3ccc4c(cnn4Cc4cccc(F)c4)c3)c12	241 % of DMSO
C[C@]1(C(=O)N(CCCC(=O)O)Cc2cccc(Cl)c2)CCN1C(=O)c1csc2ccccc12	95 % of DMSO

Series 3
Structure (SMILES): COCCOc1nc(-c2ccc(Cl)nc2)nc2c1CN(C(=O)c1ncn3ccccc13)CC2
Effect on: cell-free assay
Method: competition with immobilised ligand
Tested at: 0.1 µM
target	remaining binding
CDK15 (Homo sapiens, UniProt Q96Q40)	100%
PIK3CA (Homo sapiens, UniProt P42336, E542K)	87%
PIP5K1C (Homo sapiens, UniProt O60331)	67%
CAMK2A (Homo sapiens, UniProt Q9UQM7)	100%
TNNI3K (Homo sapiens, UniProt Q59H18)	100%
EPHA5 (Homo sapiens, UniProt P54756)	99%

Series 4
Target: Serine/threonine-protein kinase STK11 (STK11, Homo sapiens, UniProt Q15831)
Effect on: enzyme activity
Mode: inhibitor
Tested at: 0.5 µM
Reference: control
Target sequence (Q15831 1-433): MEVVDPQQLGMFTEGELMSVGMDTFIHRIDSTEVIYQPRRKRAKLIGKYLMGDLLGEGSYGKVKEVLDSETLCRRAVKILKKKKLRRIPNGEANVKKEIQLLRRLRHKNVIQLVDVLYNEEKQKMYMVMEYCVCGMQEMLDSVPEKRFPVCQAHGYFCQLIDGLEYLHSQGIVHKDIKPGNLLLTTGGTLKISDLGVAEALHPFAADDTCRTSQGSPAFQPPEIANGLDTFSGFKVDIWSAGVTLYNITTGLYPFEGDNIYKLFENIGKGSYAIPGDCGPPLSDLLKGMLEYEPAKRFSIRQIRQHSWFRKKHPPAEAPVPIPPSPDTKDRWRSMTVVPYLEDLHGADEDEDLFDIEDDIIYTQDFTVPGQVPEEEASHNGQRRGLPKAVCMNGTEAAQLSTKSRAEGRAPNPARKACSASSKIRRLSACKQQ
SMILES	remaining activity
Nc1ccc2ncnc(NCCc3ccc(Oc4ccccc4)cc3)c2c1	97.6%
COc1cc2ncnc(Nc3ccc(Oc4ccccc4)cc3)c2cc1OC	93.6%
OCC(O)CCON=C1C(c2c(O)[nH]c3ccccc23)=Nc2ccccc21 (stereo not shown)	5.77%
Nc1ncnc2n[nH]c(Nc3ccc(F)cc3)c12	97.1%
O=C(CCCc1ccc(-c2ccccc2F)cc1)Nc1ccc(O)cc1	97.4%
NCCNc1ncc(C(N)=O)c(Nc2cccc(C(F)(F)F)c2)n1	49.3%
Cn1sc(=O)n(Cc2ccccc2)c1=O	106%
O=C1NC(=O)C(c2cn(CCCO)c3ncccc23)=C1c1cnccn1	83.1%
COc1cc2nccc(Oc3ccc(NC(=S)NC(=O)c4ccccc4C)cc3)c2cc1OC	106%
O=S(=O)(c1cccc2cnccc12)N1CCCNCC1	97.6%

For quick reference, copied from above (series 4):
SMILES	remaining activity
NCCNc1ncc(C(N)=O)c(Nc2cccc(C(F)(F)F)c2)n1	49.3%
Cn1sc(=O)n(Cc2ccccc2)c1=O	106%
